{"data": "Assay results from different studies", "note": "Compare with care: the assays were run in different laboratories. Several values in a cell are separate wells, animals, samples, runs or records. Numbers after ± are the reported error."}
{"Compound": "CC(C)C[C@@H](/C=C/[C@H](Cc1ccccc1)C(=O)N1CCC[C@H]1C(=O)N[C@H](C(=O)NC1CC(C)(C)N([O])C(C)(C)C1)C(C)C)NC(=O)OC(C)(C)C", "cell line": "HT-1080", "test": "protection from ferroptosis, PrestoBlue", "conditions": "24 h, added: erastin 10 µM", "EC50": "0.465 µM"}
{"Compound": "F[P-](F)(F)(F)(F)F.F[P-](F)(F)(F)(F)F.[Ru+2].c1ccc(-c2ccccn2)nc1.c1ccc(-c2ccccn2)nc1.c1csc(-c2cc3cccnc3c3ncccc23)c1", "cell line": "HL-60", "test": "cell viability", "conditions": "dark", "EC50": "not toxic"}
{"Compound": "CC[C@H](C)[C@@H]1NC(=O)[C@H](Cc2c[nH]c3ccccc23)NC(=O)[C@H](CCCCCC(=O)NO)NC(=O)[C@H]2CCCCN2C1=O", "cell line": "human iPSC-derived NPCs", "test": "inducer, ELISA, refers to: intracellular progranulin", "conditions": "18 h", "EC50": "0.038 ± 0.001 µM"}
{"Compound": "CC[C@H](C)[C@H](NC(=O)[C@H](CO)NC(=O)[C@@H]1CCCN1C(=O)C(C)(C)NC(=O)[C@H](CC(C)C)NC(=O)[C@H](CC(N)=O)NC(=O)[C@@](C)(CC)NC(C)=O)C(=O)NC(C)(C)C(=O)N1CCC[C@H]1C(=O)NC(C)(C)C(=O)N[C@@H](CC(C)C)C(=O)NC(C)(C)C(=O)N1CCC[C@H]1C(=O)N[C@H](CO)CC(C)C", "cell line": "HepG2", "test": "cytotoxicity, MTS", "conditions": "48 h", "EC50": "> 25 µM"}
{"Compound": "C[C@@H](NC(=O)[C@H](Cc1ccccc1)NC(=O)[C@@H](CCCNC(=N)N)NC(=O)[C@H](CCCN)NC(=O)[C@@H]1CNC(=O)c2cc3cc(c2)C(=O)N[C@H](Cc2ccc4ccccc4c2)C(=O)N[C@@H]([C@@H](C)O)C(=O)N[C@@H](CC(N)=O)C(=O)N[C@H](Cc2ccc4ccccc4c2)C(=O)N[C@@H](c2ccccc2)C(=O)N[C@@H](CCCCNC3=O)C(=O)N[C@H](Cc2ccccc2)C(=O)N[C@@H](CCC(N)=O)C(=O)N[C@H](CCCNC(=N)N)C(=O)N[C@@H](CCCNC(=N)N)C(=O)N1)C(N)=O", "cell line": "H358", "test": "cell viability, CellTiter-Glo", "conditions": "96 h, 10% FBS", "EC50": "23 ± 17 µM"}
{"Compound": "CCCCCCCC(=O)NC(C)(C)C(=O)NCC(=O)N[C@H](C(=O)NC(C)(C)C(=O)NCC(=O)N[C@H](C(=O)N[C@H](CO)CC(C)C)[C@@H](C)CC)C(C)C", "cell line": "HepG2", "test": "cytotoxicity, MTS", "conditions": "48 h", "EC50": "> 25 µM"}
{"Compound": "CC(C)[C@H](NC(=O)CNC(=O)[C@H](Cc1c[nH]c2ccccc12)NC(=O)[C@@H]1CCCN1C(=O)[C@H](CC(=O)O)NC(=O)[C@H](CCC(N)=O)NC(=O)[C@H](CCC(=O)O)NC(=O)[C@@H](N)Cc1ccc(O)cc1)C(=O)N[C@@H](CCCCN)C(=O)N[C@@H](Cc1c[nH]c2ccccc12)C(=O)N[C@@H](Cc1c[nH]c2ccccc12)C(=O)N[C@@H](Cc1ccc(O)cc1)C(=O)NCC(=O)NCC(=O)NCC(=O)N[C@@H](CO)C(=O)N[C@@H](CCCCN)C(=O)N[C@@H](CCCCN)C(=O)N[C@@H](CCCCN)C(=O)N[C@@H](CSC1CC(=O)N(CCC(=O)NCCCC[C@H](NC(=O)CNC(=O)[C@H](CCCCNC(=O)CCN2C(=O)CC(SC[C@H](NC(=O)[C@H](CCCCN)NC(=O)[C@H](CCCCN)NC(=O)[C@H](CCCCN)NC(=O)[C@H](CO)NC(=O)CNC(=O)CNC(=O)CNC(=O)[C@H](Cc3ccc(O)cc3)NC(=O)[C@H](Cc3c[nH]c4ccccc34)NC(=O)[C@H](Cc3c[nH]c4ccccc34)NC(=O)[C@H](CCCCN)NC(=O)[C@@H](NC(=O)CNC(=O)[C@H](Cc3c[nH]c4ccccc34)NC(=O)[C@@H]3CCCN3C(=O)[C@H](CC(=O)O)NC(=O)[C@H](CCC(N)=O)NC(=O)[C@H](CCC(=O)O)NC(=O)[C@@H](N)Cc3ccc(O)cc3)C(C)C)C(N)=O)C2=O)NC(=O)CNC(=O)[C@H](CCCCNC(=O)CCN2C(=O)CC(SC[C@H](NC(=O)[C@H](CCCCN)NC(=O)[C@H](CCCCN)NC(=O)[C@H](CCCCN)NC(=O)[C@H](CO)NC(=O)CNC(=O)CNC(=O)CNC(=O)[C@H](Cc3ccc(O)cc3)NC(=O)[C@H](Cc3c[nH]c4ccccc34)NC(=O)[C@H](Cc3c[nH]c4ccccc34)NC(=O)[C@H](CCCCN)NC(=O)[C@@H](NC(=O)CNC(=O)[C@H](Cc3c[nH]c4ccccc34)NC(=O)[C@@H]3CCCN3C(=O)[C@H](CC(=O)O)NC(=O)[C@H](CCC(N)=O)NC(=O)[C@H](CCC(=O)O)NC(=O)[C@@H](N)Cc3ccc(O)cc3)C(C)C)C(N)=O)C2=O)NC(=O)CNC(=O)[C@H](CCCCNC(=O)CCN2C(=O)CC(SC[C@H](NC(=O)[C@H](CCCCN)NC(=O)[C@H](CCCCN)NC(=O)[C@H](CCCCN)NC(=O)[C@H](CO)NC(=O)CNC(=O)CNC(=O)CNC(=O)[C@H](Cc3ccc(O)cc3)NC(=O)[C@H](Cc3c[nH]c4ccccc34)NC(=O)[C@H](Cc3c[nH]c4ccccc34)NC(=O)[C@H](CCCCN)NC(=O)[C@@H](NC(=O)CNC(=O)[C@H](Cc3c[nH]c4ccccc34)NC(=O)[C@@H]3CCCN3C(=O)[C@H](CC(=O)O)NC(=O)[C@H](CCC(N)=O)NC(=O)[C@H](CCC(=O)O)NC(=O)[C@@H](N)Cc3ccc(O)cc3)C(C)C)C(N)=O)C2=O)NC(=O)CNC(=O)CCCC[C@@H]2SC[C@@H]3NC(=O)N[C@@H]32)C(N)=O)C1=O)C(N)=O (some centres unmarked)", "cell line": "M2 macrophages", "test": "cell viability, propidium iodide staining", "conditions": "2 h", "EC50": "1.12 µM"}
{"Compound": "F[P-](F)(F)(F)(F)F.F[P-](F)(F)(F)(F)F.[Ru+2].c1ccc(-c2ccccn2)nc1.c1ccc(-c2ccccn2)nc1.c1csc(-c2ccc(-c3ccc(-c4cc5cccnc5c5ncccc45)s3)s2)c1", "cell line": "HL-60", "test": "cell viability, resazurin", "conditions": "16 h drug-to-light interval, added: red light 625 nm, 100 J/cm2", "EC50": "~2 µM and 2.2 µM"}
{"Compound": "C[C@@H]1NC(=O)[C@@H](Cc2ccccc2)NC(=O)[C@@H]2CCCCNC(=O)c3cc(cc(c3)C(=O)N[C@H](Cc3ccc4ccccc4c3)C(=O)N[C@@H](CO)C(=O)N[C@@H](CC(N)=O)C(=O)N[C@H](Cc3ccc4ccccc4c3)C(=O)N[C@@H](c3ccccc3)C(=O)N2)C(=O)NC[C@@H](C(=O)N[C@@H](CCCN)C(=O)N[C@H](CCCNC(=N)N)C(=O)N[C@@H](Cc2ccc(F)cc2)C(N)=O)NC(=O)[C@H](CCCNC(=N)N)NC(=O)[C@@H](CCCNC(=N)N)NC1=O", "cell line": "H358", "test": "cell viability, CellTiter-Glo", "conditions": "96 h, 10% FBS", "EC50": "15 ± 2 µM"}
{"Compound": "CC[C@H](C)[C@H](NC(=O)CNC(=O)[C@H](CC(=O)O)NC(=O)[C@H](CCCNC(=N)N)NC(=O)[C@@H](NC(=O)[C@H](CC(N)=O)NC(=O)[C@H](CCC(N)=O)NC(=O)CNC(=O)[C@@H](NC(=O)[C@H](CCCCN)NC(=O)[C@H](CCC(=O)O)NC(=O)[C@@H](NC(=O)[C@H](CCCCN)NC(=O)[C@H](CCCCN)NC(=O)[C@H](Cc1ccccc1)NC(=O)[C@H](CC(C)C)NC(=O)[C@H](CCCCN)NC(=O)[C@H](Cc1c[nH]c2ccccc12)NC(=O)[C@@H](N)CCCCN)[C@@H](C)CC)C(C)C)[C@@H](C)CC)C(=O)N[C@H](C(=O)N[C@@H](CCCCN)C(=O)N[C@@H](C)C(=O)NCC(=O)N1CCC[C@H]1C(=O)N[C@@H](C)C(=O)N[C@H](C(=O)N[C@@H](C)C(=O)N[C@H](C(=O)N[C@H](C(=O)NCC(=O)N[C@@H](CCC(N)=O)C(=O)N[C@@H](C)C(=O)N[C@H](C(=O)N[C@@H](CCC(N)=O)C(=O)N[C@H](C(=O)N[C@@H](C)C(=O)N[C@@H](CCCCN)C(N)=O)[C@@H](C)CC)[C@@H](C)O)C(C)C)C(C)C)C(C)C)[C@@H](C)CC", "cell line": "sheep erythrocytes", "test": "turbidity", "conditions": "pH 7.5", "EC50": "≥ 12 µM"}
{"Compound": "CC[C@H](C)[C@H](NC(=O)[C@H](CCCNC(=N)N)NC(=O)[C@H](CCCNC(=N)N)NC(=O)[C@H](CC(C)C)NC(=O)[C@H](CCC(=O)O)NC(=O)[C@H](CCC(N)=O)NC(=O)[C@H](C)NC(=O)[C@@H](NC(=O)[C@H](CNC(=O)CCl)NC(=O)[C@H](CCCNC(=N)N)NC(=O)[C@H](CCCNC(=N)N)NC(=O)[C@@H]1CCCN1C(=O)[C@H](CCCNC(=N)N)NC(=O)[C@H](CCCNC(=N)N)NC(=O)[C@@H]1CCCN1C(=O)[C@H](CCCNC(=N)N)NC(=O)[C@H](CCCNC(=N)N)NC(=O)[C@@H]1CCCN1C(=O)[C@H](CCCNC(=N)N)NC(=O)[C@H](CCCNC(=N)N)NC(=O)[C@@H]1CCCN1C(=O)[C@H](CCCNC(=N)N)NC(=O)[C@H](CCCNC(=N)N)NC(=O)[C@@H]1CCCN1C(C)=O)[C@@H](C)CC)C(=O)NCC(=O)N[C@@H](CC(=O)O)C(=O)N[C@@H](CCC(=O)O)C(=O)N[C@@H](Cc1ccccc1)C(=O)N[C@@H](CC(N)=O)C(=O)N[C@@H](C)C(=O)N[C@@H](Cc1ccc(O)cc1)C(=O)N[C@@H](Cc1ccc(O)cc1)C(=O)N[C@@H](C)C(=O)N[C@@H](CCCNC(=N)N)C(=O)N[C@@H](CCCNC(=N)N)C(N)=O", "cell line": "Raji", "test": "apoptosis, flow cytometry", "EC50": "< 5 µM"}
{"note": "For quick reference, copied from above:"}
{"Compound": "F[P-](F)(F)(F)(F)F.F[P-](F)(F)(F)(F)F.[Ru+2].c1ccc(-c2ccccn2)nc1.c1ccc(-c2ccccn2)nc1.c1csc(-c2cc3cccnc3c3ncccc23)c1", "cell line": "HL-60", "test": "cell viability", "conditions": "dark", "EC50": "not toxic"}
